Experimental data of several laboratories.
Parts stem from different laboratories: compare values within a part only. Positions count from the first letter of the parent shown.

Series 1
Target: tungstate, free oxyanion
Technique: microfluidic competitive inhibition
Medium: in vitro, cell-free expressed
Concentration: not given
Notes: derived from inhibition constants, unchanged parent 2230 nM
Direction: lower = stronger binding
Starting sequence: PafA, mature enzyme, eGFP fusion (Elizabethkingia meningoseptica, UniProt Q9KJX5); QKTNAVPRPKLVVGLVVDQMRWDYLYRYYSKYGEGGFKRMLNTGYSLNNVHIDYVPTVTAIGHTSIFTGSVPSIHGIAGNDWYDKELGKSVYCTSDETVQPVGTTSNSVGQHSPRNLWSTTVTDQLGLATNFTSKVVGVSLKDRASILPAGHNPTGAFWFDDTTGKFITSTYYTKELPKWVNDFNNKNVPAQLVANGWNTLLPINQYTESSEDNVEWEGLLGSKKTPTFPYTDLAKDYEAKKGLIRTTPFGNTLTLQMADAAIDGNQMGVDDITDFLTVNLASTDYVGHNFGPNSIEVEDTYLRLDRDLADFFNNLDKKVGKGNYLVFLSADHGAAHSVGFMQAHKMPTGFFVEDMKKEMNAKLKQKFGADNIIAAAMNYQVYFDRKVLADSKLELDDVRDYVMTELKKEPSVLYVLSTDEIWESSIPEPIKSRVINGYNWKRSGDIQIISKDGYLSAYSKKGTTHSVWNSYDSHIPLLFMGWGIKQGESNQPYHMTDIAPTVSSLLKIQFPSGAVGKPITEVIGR
Variant	oxyanion analog dissociation constant [µM]
P348V	2.14
L177V	2.46
T155V	2.2
F167G	1.59

Series 2
Target: CCND2, cyclin fold, Cln2 fusion (human)
Technique: yeast growth competition, sequencing
Medium: yeast
Notes: weak parent motif
Reference: not given
Direction: higher = stronger binding
Starting sequence: viral docking peptide; TSVRRALFTGGSD
Variant	normalised enrichment score
TSARRALFTGGSD [V3A]	0.262
TSVPRALFTGGSD [R4P]	0.335
TSVRSALFTGGSD [R5S]	0.322
TSVRRASFTGGSD [L7S]	-0.0352
TSSRRALFTGGSD [V3S]	-0.113
TSVRRATFTGGSD [L7T]	0.285
TSVRRALFTGWSD [G11W]	-0.148
TSVRRALITGGSD [F8I]	-0.131
TSVRRALFTGASD [G11A]	-0.0866
TSFRRALFTGGSD [V3F]	-0.259
TSVWRALFTGGSD [R4W]	-0.393
TLVRRALFTGGSD [S2L]	0.351
TSVRAAAFTGGSD [R5A L7A]	0.0774
TMVRRALFTGGSD [S2M]	0.272

Series 3
Target: CEP164, C-terminal peptide (human)
Technique: DHFR complementation, deep sequencing
Medium: yeast
Notes: single substitutions, model-inferred values
Reference: wild type
Direction: higher = weaker binding
Starting sequence: PDZK1, PDZ domain 2 (human); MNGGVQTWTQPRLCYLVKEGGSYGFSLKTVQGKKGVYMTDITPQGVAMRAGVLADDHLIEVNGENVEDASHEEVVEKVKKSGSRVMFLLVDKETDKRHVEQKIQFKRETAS; partner HNRVKVYRF
Variant	binding free energy change
K28E	0.03 kJ/mol
F87I	2.75 kJ/mol
F87G	7.51 kJ/mol
K34P	0.903 kJ/mol
R97W	-0.289 kJ/mol
V52T	6.27 kJ/mol
L58P	-0.511 kJ/mol
V66R	3.72 kJ/mol

Series 4
Target: Fragile X messenger ribonucleoprotein 1, C-terminal low-complexity region (Fmr1, Mus musculus, UniProt P35922)
Technique: RNA Bind-n-Seq
Molecule type: RNA
Medium: in vitro
Concentration: 200 nM
Notes: whole 134-nt RNA, ends assumed
With: 150 mM KCl
Reference: input library
Direction: higher = stronger binding
Sequence	log2 enrichment
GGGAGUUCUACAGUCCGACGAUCCCUGUGCUACACAUCGUAUGUACCGAAUCGGAAAAAAGGGGAAAAAAGGGAAAAAAGGGGAAAGUAUUAUGUUACGCCGUUCGGAUCUGCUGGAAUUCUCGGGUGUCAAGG	-0.639
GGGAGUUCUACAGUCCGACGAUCUCCUCAAGUCCUGUGCUACACAUCGUAUGUACCGAAUCGGGGCGGCGGGCGGAAAGUAUUAUGUUACGCCGUUCGGAUCUGCACUUCCAGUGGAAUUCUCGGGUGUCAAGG	0.24
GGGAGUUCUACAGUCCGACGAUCGUCCUGUGCUACACAUCGUAUGUACCGAAUCGGGGUGGGGUUUUUUUGGGGUUUGGGGAAAGUAUUAUGUUACGCCGUUCGGAUCUGCACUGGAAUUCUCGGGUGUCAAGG	0.695
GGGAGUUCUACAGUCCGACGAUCUGCGAGGUGGAUUUUGUUUAUUUUUUUAGCUCAUUUCCAGGGGUGGGAAUUUUUUUUUAAUAUGUGUCAUGAAUAAAGUUGUUUUUGAAAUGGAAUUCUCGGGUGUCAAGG	-0.0434
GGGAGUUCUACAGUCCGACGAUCCAAGUCCUGUGCUACACAUCGUAUGUACCGAAUCGGGAAAGGGAAAAAGGGAGGGAAAGUAUUAUGUUACGCCGUUCGGAUCUGCACUUCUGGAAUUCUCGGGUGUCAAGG	0.827
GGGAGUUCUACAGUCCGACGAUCCAAGUCCUGUGCUACACAUCGUAUGUACCGAAUCGGGGAGGGGUGGGGAAAGGGGAAAGUAUUAUGUUACGCCGUUCGGAUCUGCACUUCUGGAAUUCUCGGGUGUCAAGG	1.32
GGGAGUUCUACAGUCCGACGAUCCACAGACAACACGCACCCACACAGACACAGAGGGAAGGGGUUGGGAUGGGGACAGGGUGCACAGAAAGGCGGGGUAGGACCCCAGCCCCUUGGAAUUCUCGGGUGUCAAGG	1.15
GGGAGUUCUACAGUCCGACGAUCUGGACCUGGUGGCAUGCGGGGAGGAAGAGGUGGCCUCAUGGAUCGUGGUGGUCCCGGUGGAAUGUUCAGAGGUGGCCGUGGUGGAGACAGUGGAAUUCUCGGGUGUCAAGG	0.432

Repeated from above (series 2):
Variant	normalised enrichment score
TSVWRALFTGGSD [R4W]	-0.393
TLVRRALFTGGSD [S2L]	0.351
